{"data": "Measurements collected from several papers", "note": "Compare with care: the assays were run in different laboratories. “And” joins repeats or separate records; there may be more than shown. ± marks the error that the study gave."}
{"Compound": "COc1ccc2nccc(CC[C@H]3OC[C@H](NC(=O)c4ccc(Cl)c(Cl)c4)CO3)c2c1", "tested on": "THP-1", "test": "cytotoxicity", "quantity": "IC50", "value": "8.38 µg/mL"}
{"Compound": "Cc1cc(C(=O)Nc2nc3cccc(C)c3n2[C@H]2CCCCN(C(=O)/C=C/CN(C)C)C2)ccn1", "tested on": "NIH 3T3", "test": "cytotoxicity", "setting": "4 days", "quantity": "CC50", "value": "14.1 µM and 8.02 µM and 6.86 µM"}
{"Compound": "O=C(/C=C/c1ccc(O)cc1)OC(CO)C(=O)O (stereo not shown)", "tested on": "HeLa, SW480 and HCT-116", "test": "CCK-8", "setting": "80 µM, 24 h", "quantity": "cytotoxicity", "value": "not toxic"}
{"Compound": "O=C(N/N=C/c1cc[n+](CC2CC2)c2ccccc12)C(=O)N/N=C/c1cc[n+](CC2CC2)c2ccccc12", "tested on": "hp2 hairpin duplex DNA", "test": "FRET melting", "setting": "1 µM, together with: ds26 10 µM", "quantity": "ΔTm", "value": "0.4 ± 0.3 °C"}
{"Compound": "CC(=O)OC[C@H]1O[C@@H]([Se]C(C)=O)[C@H](OC(C)=O)[C@@H](OC(C)=O)[C@@H]1OC(C)=O", "tested on": "THP-1 macrophages (PMA-differentiated)", "test": "WST-1", "setting": "25 µM, 24 h", "quantity": "viability", "value": "105 ± 4.2%"}
{"Compound": "CCOC(=O)c1ccc2c(c1)C1CC(C)(N2)c2c(C)nc3ccc(C(=O)OCC)cc3c21 (stereo not shown)", "tested on": "Huh-7", "test": "cell growth or viability, MTT", "quantity": "CC50", "value": "19.9 µM"}
{"Compound": "O=C(N/N=C/c1ccc2c(ccc[n+]2Cc2ccccc2)c1)c1cc(C(=O)N/N=C/c2ccc3c(ccc[n+]3Cc3ccccc3)c2)ncn1", "tested on": "MYC parallel G4 DNA", "test": "FRET melting", "setting": "1 µM, DNA 0.2 µM", "quantity": "ΔTm", "value": "6 ± 1.2 °C"}
{"Compound": "Cl.NCc1ccc2c(c1)CN(C1CCC(=O)NC1=O)C2=O (stereo not shown)", "tested on": "Huh-7", "test": "CellTiter-Glo", "setting": "concentration not given, 72 h", "quantity": "minimum viability", "value": "< 50% and 35.2%"}
{"Compound": "Cc1cc(C)nc(NC(=S)N2CCN(Cc3ccc(C(F)(F)F)cc3)CC2)c1", "tested on": "MDCK-MDR1", "quantity": "Papp B-A", "value": "5.7 ± 1 ×10⁻⁶ cm/s"}
{"Compound": "O=S(=O)(c1ccc(-c2ccc3ncnc(Nc4ccc(OCc5cccc(F)c5)c(Cl)c4)c3c2)cc1)N1CCOCC1", "tested on": "Leishmania major", "test": "intracellular amastigote growth, luciferase", "test system": "RAW264.7 macrophages", "quantity": "EC50", "value": "1.4 µM"}
{"Compound": "COC1OC(C)C(OC2OC(C)C(O)C(OC3OC(C)C(OC4OC(C)C(O)C(OC5OC(C)C(OC6OC(C)C(O)C(OC7OC(C)C(OC8OC(C)C(O)C(OS(=O)(=O)O)C8OS(=O)(=O)O)C(OS(=O)(=O)O)C7OS(=O)(=O)O)C6OS(=O)(=O)O)C(OS(=O)(=O)O)C5OS(=O)(=O)O)C4OS(=O)(=O)O)C(OS(=O)(=O)O)C3OS(=O)(=O)O)C2OS(=O)(=O)O)C(OS(=O)(=O)O)C1OS(=O)(=O)O (stereo not shown)", "tested on": "NIH 3T3", "test": "CCK-8", "setting": "concentration not given, 24 h, low concentration", "how to read": "relative to: untreated cells", "quantity": "viability", "value": "95.7% and 98% and 98.4%"}
{"Compound": "N#Cc1cccc(-c2ccc(=O)n(Cc3cccc(-c4ncc(OCC5CCN(CC(=O)N6CCN(c7ccc8c(c7)C(=O)N(C7CCC(=O)NC7=O)C8=O)CC6)CC5)cn4)c3)n2)c1 (stereo not shown)", "tested on": "Caco-2", "test": "transwell monolayer", "setting": "2 µM, 120 min, pH 7.4, 0.1% DMSO, together with: Ko143 10 µM", "quantity": "Papp B-A", "value": "0.5 ± 0.05 ×10⁻⁶ cm/s"}
{"Compound": "CC[C@H](C)[C@@H](C(=O)N[C@@H](Cc1ccc(O)cc1)C(=O)N1CCC[C@H]1C(=O)N[C@@H](Cc1ccccc1)C(=O)O)n1cc(C(Cc2ccc(O)cc2)NC(=O)[C@@H](NC(=O)[C@H](CCCNC(=N)N)NC(=O)[C@@H](N)CC(=O)O)C(C)C)nn1 (stereo partly shown)", "tested on": "Caco-2", "test": "cell growth or viability, MTT", "setting": "25 µM, 48 h", "quantity": "viability", "value": "93%"}
{"Compound": "Cc1ccc2c(c1)C1CC(C)(N2)c2c(C)nc3ccc(C)cc3c21 (stereo not shown)", "tested on": "Huh-7", "test": "cell growth or viability, MTT", "quantity": "CC50", "value": "7.5 µM"}
{"Compound": "CC(=O)OC[C@H]1O[C@@H]([Se]c2ccc([N+](=O)[O-])cc2[N+](=O)[O-])[C@H](OC(C)=O)[C@@H](OC(C)=O)[C@@H]1OC(C)=O", "tested on": "THP-1 macrophages (PMA-differentiated)", "test": "WST-1", "setting": "25 µM, 24 h", "quantity": "viability", "value": "71.8 ± 16.8%"}
{"Compound": "COC1OC(C)C(OC2OC(C)C(OS(=O)(=O)O)C(OC3OC(C)C(OC4OC(C)C(OS(=O)(=O)O)C(OC5OC(C)C(OC6OC(C)C(OS(=O)(=O)O)C(OC7OC(C)C(OS(=O)(=O)O)C(OS(=O)(=O)O)C7OS(=O)(=O)O)C6OS(=O)(=O)O)C(OS(=O)(=O)O)C5OS(=O)(=O)O)C4OS(=O)(=O)O)C(OS(=O)(=O)O)C3OS(=O)(=O)O)C2OS(=O)(=O)O)C(OS(=O)(=O)O)C1OS(=O)(=O)O (stereo not shown)", "tested on": "RAW264.7", "test": "CCK-8", "setting": "concentration not given, 24 h, medium concentration", "how to read": "relative to: untreated cells", "quantity": "viability", "value": "127% and 110% and 117%"}
{"Compound": "CC(C)(C)OC(=O)N1CCN(c2ccc(-c3ccc4ncnc(Nc5ccc(OCc6cccc(F)c6)c(Cl)c5)c4c3)cc2)CC1", "tested on": "Leishmania major", "test": "intracellular amastigote growth, luciferase", "test system": "RAW264.7 macrophages", "quantity": "EC50", "value": "> 3 µM"}
{"Compound": "COc1ccc2ncc(F)c(C(O)C[C@H]3OC[C@H](NCc4ccc5c(c4)OCCO5)CO3)c2c1 (stereo partly shown)", "tested on": "THP-1", "test": "cytotoxicity", "quantity": "IC50", "value": "65.4 µg/mL"}
{"Compound": "CN(C)C(=O)c1ccnc(N2Cc3cn(Cc4ccc(F)cc4F)nc3C2)n1", "tested on": "MDCK-MDR1", "how to read": "relative to: B-A over A-B permeability", "quantity": "efflux ratio", "value": 1.4}
{"Compound": "COC1OC(C)C(OS(=O)(=O)O)C(OC2OC(C)C(OS(=O)(=O)O)C(OC3OC(C)C(OS(=O)(=O)O)C(OC4OC(C)C(OS(=O)(=O)O)C(OC5OC(C)C(OS(=O)(=O)O)C(OC6OC(C)C(OS(=O)(=O)O)C(OC7OC(C)C(OS(=O)(=O)O)C(OC8OC(C)C(OS(=O)(=O)O)C(OC9OC(C)C(OS(=O)(=O)O)C(OC%10OC(C)C(OS(=O)(=O)O)C(OS(=O)(=O)O)C%10OS(=O)(=O)O)C9OS(=O)(=O)O)C8OS(=O)(=O)O)C7OS(=O)(=O)O)C6OS(=O)(=O)O)C5OS(=O)(=O)O)C4OS(=O)(=O)O)C3OS(=O)(=O)O)C2OS(=O)(=O)O)C1OS(=O)(=O)O (stereo not shown)", "tested on": "RAW264.7", "test": "CCK-8", "setting": "concentration not given, 24 h, low concentration", "how to read": "relative to: untreated cells", "quantity": "viability", "value": "117% and 135% and 132%"}
{"Compound": "CN1CCCNC(=O)c2cccc(c2)C(=O)NCCCN(C)CCCNc2cccc3c2C(=O)c2cccc(c2C3=O)NCCC1", "tested on": "NHEK", "test": "CCK-8", "setting": "0.5 µM, 48 h", "how to read": "relative to: untreated", "quantity": "viability", "value": "68.2%"}
{"Compound": "COc1ccc2nccc(CC[C@H]3OC[C@H](NCc4ccc(Cl)c(Cl)c4)CO3)c2c1", "tested on": "THP-1", "test": "cytotoxicity", "quantity": "IC50", "value": "31.2 µg/mL"}
{"Compound": "Cc1ncsc1-c1ccc(C(C)NC(=O)C2CC(O)CN2C(=O)C(NC(=O)CCCCCCCCCCN2CCCC(Nc3ncc(Cl)c(Nc4ccccc4S(=O)(=O)C(C)C)n3)C2)C(C)(C)C)cc1 (stereo not shown)", "tested on": "22Rv1", "test": "RNA-seq, refers to: LINC01006 mRNA", "setting": "concentration not given", "how to read": "relative to: DMSO", "quantity": "log2 fold change", "value": -1}
{"Compound": "CC(=O)OC[C@H]1O[C@@H]([Se]C(=O)c2ccc([N+](=O)[O-])cc2)[C@H](OC(C)=O)[C@@H](OC(C)=O)[C@@H]1OC(C)=O", "tested on": "THP-1", "test": "cell growth or viability, WST-1", "setting": "24 h", "quantity": "CC50", "value": "> 10 µM"}
{"Compound": "COc1ccc2ncc(F)c(CC[C@@]3(O)CO[C@@H]4[C@@H](NCc5ccc(C)cc5)CO[C@@H]43)c2n1", "tested on": "THP-1", "test": "cytotoxicity", "quantity": "IC50", "value": "38.6 µg/mL"}
